Measured values of several laboratories.
A part holds a random share of what one study measured.

Block 1 — technique: protein-binding microarray; form: double-stranded DNA, one strand shown; sample: in vitro; tested at: 2540 nM top; setting: 60-bp whole probe; together with: salmon DNA 0.4 mg/ml; baseline: random background probes; reading: higher = stronger binding; measurement: fitted relative affinity; all sequences stand within: GCCTAGCAC … GTCTTGATTCGCTTGACGCTGCTG
Target: Interferon regulatory factor 3, full length, phosphomimetic (IRF3, Homo sapiens, UniProt Q14653, residues 1-427, S386D/S396D/S398D/S402D/T404D/S405D)
Sequence of UniProt Q14653 (whole entry, unmodified, looked up): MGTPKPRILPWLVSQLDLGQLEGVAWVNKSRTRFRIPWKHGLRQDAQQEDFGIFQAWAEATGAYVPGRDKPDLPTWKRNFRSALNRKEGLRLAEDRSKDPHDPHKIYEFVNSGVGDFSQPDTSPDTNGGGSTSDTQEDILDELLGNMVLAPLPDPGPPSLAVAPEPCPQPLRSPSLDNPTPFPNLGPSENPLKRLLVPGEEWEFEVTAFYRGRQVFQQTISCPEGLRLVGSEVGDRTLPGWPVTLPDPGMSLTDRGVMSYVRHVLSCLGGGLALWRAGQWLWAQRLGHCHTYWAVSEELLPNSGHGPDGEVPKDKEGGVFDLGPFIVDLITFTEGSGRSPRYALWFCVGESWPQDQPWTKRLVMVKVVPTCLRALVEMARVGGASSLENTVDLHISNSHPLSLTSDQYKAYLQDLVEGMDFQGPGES
GACGAAGTGAGTATCGAGACGTGCTAG: -0.287 z-score
GTGTTTTCATTTTATGACAGCGTGCTA: 4.53 z-score
TTAGGACTGGGACTGGGTTTGTGCTAG: -1.01 z-score
AAATTCTATTCTCTCAATTTGTGCTAG: 2.43 z-score
TCATAAGCAAAAATGATACTGTGCTAG: 0.43 z-score
ATAGAACTGAGACTGGATTAGTGCTAG: -0.165 z-score

Block 2 — technique: universal PBM; form: double-stranded DNA, one strand shown; sample: in vitro; tested at: 600 nM; reading: higher = stronger binding; measurement: E-score
Target: Sal-like protein 4, full length isoform A (SALL4, Homo sapiens, UniProt Q9UJQ4, residues 1-1053)
Sequence of UniProt Q9UJQ4 (whole entry, looked up): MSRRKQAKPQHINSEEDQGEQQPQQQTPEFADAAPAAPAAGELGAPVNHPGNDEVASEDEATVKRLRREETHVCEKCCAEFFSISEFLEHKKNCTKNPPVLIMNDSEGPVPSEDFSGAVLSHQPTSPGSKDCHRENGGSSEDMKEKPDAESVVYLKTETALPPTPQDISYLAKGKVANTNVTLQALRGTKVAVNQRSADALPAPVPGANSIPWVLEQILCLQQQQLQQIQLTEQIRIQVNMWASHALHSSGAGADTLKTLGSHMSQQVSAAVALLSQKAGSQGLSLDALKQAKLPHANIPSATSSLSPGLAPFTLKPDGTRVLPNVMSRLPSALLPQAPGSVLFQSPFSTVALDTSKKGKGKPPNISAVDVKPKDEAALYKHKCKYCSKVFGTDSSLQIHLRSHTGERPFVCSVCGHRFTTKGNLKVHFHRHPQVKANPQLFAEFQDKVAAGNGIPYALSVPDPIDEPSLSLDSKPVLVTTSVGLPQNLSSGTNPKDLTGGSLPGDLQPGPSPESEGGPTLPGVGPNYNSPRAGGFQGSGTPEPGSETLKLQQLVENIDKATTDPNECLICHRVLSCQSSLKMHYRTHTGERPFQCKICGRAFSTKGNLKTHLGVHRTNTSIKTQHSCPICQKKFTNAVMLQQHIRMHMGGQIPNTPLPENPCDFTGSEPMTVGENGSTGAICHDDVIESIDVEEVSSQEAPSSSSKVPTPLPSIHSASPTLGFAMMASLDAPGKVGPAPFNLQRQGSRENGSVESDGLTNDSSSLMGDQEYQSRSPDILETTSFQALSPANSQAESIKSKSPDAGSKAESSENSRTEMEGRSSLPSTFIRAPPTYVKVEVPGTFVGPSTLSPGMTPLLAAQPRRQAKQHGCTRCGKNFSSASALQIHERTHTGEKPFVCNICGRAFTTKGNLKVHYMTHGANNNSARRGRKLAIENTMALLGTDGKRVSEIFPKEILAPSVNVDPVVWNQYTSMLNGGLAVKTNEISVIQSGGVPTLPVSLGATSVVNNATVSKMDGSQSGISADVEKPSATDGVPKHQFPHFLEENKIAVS
Setting: 8-mer, flanks averaged, mean of replicates
CGTCCAGC: -0.218
ACGCACAC: 0.0205
ATCCCGTA: -0.0598
AACTAGTC: 0.0663
AATACGCC: 0.0646

Block 3 — technique: protein binding microarray; form: double-stranded DNA, one strand shown; sample: in vitro; tested at: not given; baseline: not given; reading: higher = stronger binding; measurement: E-score
Target: Histone acetyltransferase KAT6A, both winged helices, GST fusion (KAT6A, Homo sapiens, UniProt Q92794, residues 1-181)
Setting: 8-mer, flanks averaged, mean of 2 arrays, mostly near background
Target sequence (chain): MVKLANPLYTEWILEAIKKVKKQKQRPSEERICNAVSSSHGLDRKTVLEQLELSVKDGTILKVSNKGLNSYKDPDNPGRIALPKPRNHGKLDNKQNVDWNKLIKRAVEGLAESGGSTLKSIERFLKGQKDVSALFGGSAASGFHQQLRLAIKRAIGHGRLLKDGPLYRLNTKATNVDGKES
ATGTCACA: 0.00611
AGGGCCGG: 0.0701
AGGTAACG: 0.085

Other studies, line by line
PhoQ, residues 284 288 289 292 302 303 SSTLLI
fold induction (PhoP, residues 12 14 15 18 19 SQCLL (Escherichia coli, UniProt P23836); Sort-seq, item: YFP reporter; E. coli; PhoQ-PhoP variant library, together with: 10 µM Mg2+; baseline: high Mg2+ state, higher = stronger signaling): 12.6

A few entries again (block 3):
AGGTAACG: 0.085
